Results gathered from unrelated publications.
Parts stem from different laboratories: compare values within a part only. Changes are numbered by the printed parent chain.
Chain of UniProt P25098 (whole entry, looked up): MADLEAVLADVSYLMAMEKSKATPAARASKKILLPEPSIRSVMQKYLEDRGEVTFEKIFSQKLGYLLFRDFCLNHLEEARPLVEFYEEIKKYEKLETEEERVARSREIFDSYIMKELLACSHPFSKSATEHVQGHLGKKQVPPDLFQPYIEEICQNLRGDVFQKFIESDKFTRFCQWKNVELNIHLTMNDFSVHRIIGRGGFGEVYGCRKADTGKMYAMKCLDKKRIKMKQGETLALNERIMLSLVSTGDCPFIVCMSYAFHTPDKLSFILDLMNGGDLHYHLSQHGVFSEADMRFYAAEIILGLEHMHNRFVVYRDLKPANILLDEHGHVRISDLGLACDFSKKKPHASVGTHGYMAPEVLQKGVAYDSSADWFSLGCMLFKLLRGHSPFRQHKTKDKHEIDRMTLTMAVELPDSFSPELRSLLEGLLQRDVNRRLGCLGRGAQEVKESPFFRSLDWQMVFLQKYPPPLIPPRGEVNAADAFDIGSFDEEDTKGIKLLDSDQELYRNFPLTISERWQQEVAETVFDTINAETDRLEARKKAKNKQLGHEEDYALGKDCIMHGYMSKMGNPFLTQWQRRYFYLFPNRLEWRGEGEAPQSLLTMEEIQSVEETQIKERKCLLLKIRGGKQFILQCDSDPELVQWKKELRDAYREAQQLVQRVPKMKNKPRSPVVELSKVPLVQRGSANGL
Chain of UniProt P9WI81 (whole entry, looked up): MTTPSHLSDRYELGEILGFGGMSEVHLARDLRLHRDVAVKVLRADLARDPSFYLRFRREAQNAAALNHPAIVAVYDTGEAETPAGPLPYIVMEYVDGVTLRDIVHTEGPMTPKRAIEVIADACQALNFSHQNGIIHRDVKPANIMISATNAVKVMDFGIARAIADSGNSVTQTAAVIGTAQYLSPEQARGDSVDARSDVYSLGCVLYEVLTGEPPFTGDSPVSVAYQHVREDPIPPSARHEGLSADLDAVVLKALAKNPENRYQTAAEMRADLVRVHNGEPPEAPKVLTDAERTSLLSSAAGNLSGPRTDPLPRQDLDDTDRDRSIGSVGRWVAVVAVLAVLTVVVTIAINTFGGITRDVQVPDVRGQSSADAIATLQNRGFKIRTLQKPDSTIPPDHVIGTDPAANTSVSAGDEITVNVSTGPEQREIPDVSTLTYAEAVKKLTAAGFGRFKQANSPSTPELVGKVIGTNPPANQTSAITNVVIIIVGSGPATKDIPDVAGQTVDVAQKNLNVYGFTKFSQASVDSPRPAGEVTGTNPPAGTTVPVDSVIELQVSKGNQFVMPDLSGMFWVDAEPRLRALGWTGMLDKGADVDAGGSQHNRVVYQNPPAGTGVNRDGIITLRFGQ
Chain of UniProt Q96NX5 (whole entry, looked up): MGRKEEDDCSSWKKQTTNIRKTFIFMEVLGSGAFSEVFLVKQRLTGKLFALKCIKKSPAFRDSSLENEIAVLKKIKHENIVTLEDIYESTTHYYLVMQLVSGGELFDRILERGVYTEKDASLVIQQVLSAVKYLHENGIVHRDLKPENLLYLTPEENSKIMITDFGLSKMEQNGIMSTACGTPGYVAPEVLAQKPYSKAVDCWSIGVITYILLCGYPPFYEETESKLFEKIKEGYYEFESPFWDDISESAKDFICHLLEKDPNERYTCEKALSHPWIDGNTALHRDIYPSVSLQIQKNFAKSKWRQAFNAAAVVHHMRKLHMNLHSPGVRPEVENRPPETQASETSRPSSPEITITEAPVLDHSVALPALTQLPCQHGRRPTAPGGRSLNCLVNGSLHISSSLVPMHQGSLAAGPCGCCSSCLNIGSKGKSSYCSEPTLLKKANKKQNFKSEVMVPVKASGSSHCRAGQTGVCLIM
Chain of UniProt P61075 (whole entry, looked up): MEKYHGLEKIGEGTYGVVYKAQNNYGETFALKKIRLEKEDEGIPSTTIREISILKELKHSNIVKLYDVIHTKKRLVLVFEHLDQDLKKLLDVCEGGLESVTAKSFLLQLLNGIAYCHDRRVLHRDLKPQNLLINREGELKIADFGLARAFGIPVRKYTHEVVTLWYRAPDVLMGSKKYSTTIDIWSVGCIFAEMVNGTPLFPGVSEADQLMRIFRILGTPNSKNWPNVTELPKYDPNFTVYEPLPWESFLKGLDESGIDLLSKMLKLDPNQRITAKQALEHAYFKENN
Chain of UniProt Q13555 (whole entry, looked up): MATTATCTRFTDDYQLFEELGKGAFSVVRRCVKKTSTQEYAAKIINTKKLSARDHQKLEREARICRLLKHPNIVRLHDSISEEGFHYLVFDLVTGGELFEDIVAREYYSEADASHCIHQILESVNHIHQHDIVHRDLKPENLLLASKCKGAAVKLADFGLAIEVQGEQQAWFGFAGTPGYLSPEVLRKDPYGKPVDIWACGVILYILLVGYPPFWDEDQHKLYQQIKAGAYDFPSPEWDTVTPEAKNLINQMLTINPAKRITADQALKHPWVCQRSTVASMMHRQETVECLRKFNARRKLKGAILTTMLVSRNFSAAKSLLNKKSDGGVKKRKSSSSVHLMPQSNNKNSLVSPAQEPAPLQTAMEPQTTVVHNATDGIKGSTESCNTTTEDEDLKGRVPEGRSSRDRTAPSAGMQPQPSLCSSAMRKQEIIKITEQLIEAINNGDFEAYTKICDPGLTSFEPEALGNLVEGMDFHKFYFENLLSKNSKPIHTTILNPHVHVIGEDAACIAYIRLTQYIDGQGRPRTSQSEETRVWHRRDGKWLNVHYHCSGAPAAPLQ
Chain of UniProt Q16644 (whole entry, looked up): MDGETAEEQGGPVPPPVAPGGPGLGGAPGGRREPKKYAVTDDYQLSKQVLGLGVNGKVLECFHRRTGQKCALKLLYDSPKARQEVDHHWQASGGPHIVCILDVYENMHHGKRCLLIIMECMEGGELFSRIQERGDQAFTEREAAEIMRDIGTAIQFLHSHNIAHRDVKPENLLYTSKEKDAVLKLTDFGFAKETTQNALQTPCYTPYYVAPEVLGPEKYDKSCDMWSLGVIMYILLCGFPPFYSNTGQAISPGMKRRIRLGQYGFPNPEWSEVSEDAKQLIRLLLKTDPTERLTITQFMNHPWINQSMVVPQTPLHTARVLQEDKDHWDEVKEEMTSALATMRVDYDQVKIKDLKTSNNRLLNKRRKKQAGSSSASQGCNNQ
Chain of UniProt O15146 (whole entry, looked up): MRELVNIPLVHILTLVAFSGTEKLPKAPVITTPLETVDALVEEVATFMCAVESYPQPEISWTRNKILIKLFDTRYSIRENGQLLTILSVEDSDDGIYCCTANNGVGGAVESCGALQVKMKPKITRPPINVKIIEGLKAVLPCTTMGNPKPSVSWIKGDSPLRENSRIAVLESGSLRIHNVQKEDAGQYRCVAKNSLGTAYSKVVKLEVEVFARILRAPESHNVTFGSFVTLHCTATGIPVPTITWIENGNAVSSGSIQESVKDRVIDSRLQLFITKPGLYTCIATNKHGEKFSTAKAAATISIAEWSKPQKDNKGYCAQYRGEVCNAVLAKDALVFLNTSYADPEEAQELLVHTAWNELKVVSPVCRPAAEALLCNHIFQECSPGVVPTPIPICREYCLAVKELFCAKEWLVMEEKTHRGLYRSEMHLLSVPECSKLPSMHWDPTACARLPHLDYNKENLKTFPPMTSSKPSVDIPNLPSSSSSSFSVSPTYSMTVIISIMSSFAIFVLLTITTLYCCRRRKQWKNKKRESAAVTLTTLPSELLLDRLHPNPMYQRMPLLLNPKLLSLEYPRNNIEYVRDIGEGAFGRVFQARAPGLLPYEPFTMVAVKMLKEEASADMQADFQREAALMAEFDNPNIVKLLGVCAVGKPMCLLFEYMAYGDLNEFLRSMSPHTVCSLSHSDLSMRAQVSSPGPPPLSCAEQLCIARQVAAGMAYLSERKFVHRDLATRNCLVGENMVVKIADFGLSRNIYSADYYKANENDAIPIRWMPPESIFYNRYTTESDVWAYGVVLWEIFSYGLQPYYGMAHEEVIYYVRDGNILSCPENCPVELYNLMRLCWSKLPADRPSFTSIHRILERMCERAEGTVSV
Chain of UniProt P06493 (whole entry, looked up): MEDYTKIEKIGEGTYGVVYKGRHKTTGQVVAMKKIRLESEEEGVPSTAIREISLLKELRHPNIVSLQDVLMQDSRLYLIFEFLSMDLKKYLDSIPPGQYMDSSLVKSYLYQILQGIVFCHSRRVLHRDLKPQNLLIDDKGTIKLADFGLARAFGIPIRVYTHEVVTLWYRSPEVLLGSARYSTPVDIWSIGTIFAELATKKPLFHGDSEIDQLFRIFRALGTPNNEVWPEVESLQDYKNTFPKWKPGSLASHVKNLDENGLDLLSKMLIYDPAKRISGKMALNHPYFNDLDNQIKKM

Series 1
Target: HLA class I histocompatibility antigen, A alpha chain, allele A*80:01 (Homo sapiens, UniProt P04439)
Effect on: peptide-MHC binding
Molecule type: peptide
Concentration: concentration not given
| Molecule | binding |
| --- | --- |
| ERYPGGVSL | inactive |
| HQKKNEISF | inactive |
| ETESATLFT | inactive |
| DWMERIEDF | inactive |
| RVIRTVREK | inactive |
| DSFAKQPQW | inactive |
| RRFTQAIYD | inactive |
| EYAPFARLL | inactive |

Series 2
Target: CCNB2, cyclin fold, Cln2 fusion (human)
Technique: yeast growth competition, sequencing
Matrix: yeast
Setting: weak parent motif
Relative to: not given
Reading: higher = stronger binding
Starting sequence: viral docking peptide; KGVKRKLFAEDSS; partner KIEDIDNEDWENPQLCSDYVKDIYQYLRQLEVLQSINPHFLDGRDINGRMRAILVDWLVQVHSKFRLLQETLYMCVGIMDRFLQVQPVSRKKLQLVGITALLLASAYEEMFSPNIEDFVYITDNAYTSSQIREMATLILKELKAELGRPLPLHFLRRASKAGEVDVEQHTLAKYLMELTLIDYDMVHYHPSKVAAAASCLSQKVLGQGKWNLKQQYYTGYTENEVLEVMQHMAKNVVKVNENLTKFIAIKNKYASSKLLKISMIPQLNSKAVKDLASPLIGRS
| Substitution | normalised enrichment score |
| --- | --- |
| KVVKRKLFAEDSS [G2V] | 0.95 |
| KGVKRKLFAEDES [S12E] | 0.998 |
| KGVKRKFFAEDSS [L7F] | 0.37 |
| KGVKRKLFAHDSS [E10H] | 0.378 |
| KGVKLKLFAEDSS [R5L] | 0.167 |
| KWVKRKLFAEDSS [G2W] | 0.783 |
| KGVKRKIFAEDSS [L7I] | 0.0897 |
| KGVGRKLFAEDSS [K4G] | 0.164 |

Series 3
SMILES: O=c1[nH]c2ccccc2n1C1CCN(Cc2ccc(-c3[nH]c4cc5ncnc5cc4nc3-c3ccccc3)cc2)CC1
Effect on: cell-free assay
Concentration: 0.5 µM
| target | remaining signal [%] |
| --- | --- |
| MAP3K8 (Homo sapiens, UniProt P41279) | 95.2 |
| PIM3 (Homo sapiens, UniProt Q86V86) | 106 |
| MUSK (Homo sapiens, UniProt O15146) | 96.8 |
| Cyclin-dependent kinase 1, with cyclin B (CDK1, Homo sapiens, UniProt P06493) | 85 |
| PAK3 (Homo sapiens, UniProt O75914) | 104 |
| PRKCA (Homo sapiens, UniProt P17252) | 84.3 |
| CAMK2G (Homo sapiens, UniProt Q13555) | 105 |
| CAMK1G (Homo sapiens, UniProt Q96NX5) | 101 |
| NEK11 (Homo sapiens, UniProt Q8NG66) | 86.4 |
| TSSK2 (Homo sapiens, UniProt Q96PF2) | 96.2 |
| TEC (Homo sapiens, UniProt P42680) | 162 |
| TAOK1 (Homo sapiens, UniProt Q7L7X3) | 102 |
| CSNK2A1 (Homo sapiens, UniProt P68400) | 94.3 |
| MAPKAPK3 (Homo sapiens, UniProt Q16644) | 104 |
| PNCK (Homo sapiens, UniProt Q6P2M8) | 95.5 |
| GRK2 (Homo sapiens, UniProt P25098) | 95.3 |
| Cyclin-dependent kinase 7, with cyclin H (CDK7, Homo sapiens, UniProt P50613) | 99.1 |
| SRPK2 (Homo sapiens, UniProt P78362) | 116 |

Further values, each from its own experiment
Effect on: cell-free assay
Technique: competition with immobilised ligand
Concentration: 1 µM
| Structure (SMILES) | target | remaining binding |
| --- | --- | --- |
| N#Cc1ccc(Nc2ccc3[nH]c(=O)[nH]c3c2)c(Cl)c1 | pknB (Mycobacterium tuberculosis, UniProt P9WI81) | 100% |
| O=C(NCc1ncc(C(F)(F)F)cc1Cl)c1ccc2c(c1)C1(CCS(=O)(=O)CC1)[C@@H](C1CC1)N2S(=O)(=O)c1ccc(F)cc1 | CRK2 (Plasmodium falciparum, UniProt P61075) | 97% |

Repeated from above (series 3):
| target | remaining signal [%] |
| --- | --- |
| TSSK2 (Homo sapiens, UniProt Q96PF2) | 96.2 |
| TEC (Homo sapiens, UniProt P42680) | 162 |
| TAOK1 (Homo sapiens, UniProt Q7L7X3) | 102 |
| CSNK2A1 (Homo sapiens, UniProt P68400) | 94.3 |
| MAPKAPK3 (Homo sapiens, UniProt Q16644) | 104 |
